Measurements of several laboratories.
Each line is one published result; not all experiments were run side by side. ± marks the error that the study gave.
sdiA: Regulatory protein SdiA (sdiA, Escherichia coli, UniProt P07026)
Tumor necrosis factor receptor superfamily member 9/Nectin-4: Tumor necrosis factor receptor superfamily member 9/Nectin-4 (Homo sapiens, UniProt Q07011+Q96NY8)
H2-D1 17: H-2 class I histocompatibility antigen, D-B alpha chain, 17 (H2-D1, Mus musculus, UniProt P01899)

CC(CCc1ccc(O)cc1)NCCc1ccc(O)c(O)c1 (stereo not shown)
EC50 (ADRB1 (Meleagris gallopavo, UniProt P07700, A282L/C116L/F327A/F338M/M90V/R68S/Y227A); CRE-SPAP reporter gene (cAMP), agonist; CHO cells expressing ADRB1 β6-m23): 575 nM

CCCCCCCC(=O)CC(=O)N[C@H]1CCOC1=O
EC50 (sdiA): 3.89 nM

CCCC[C@@H]1NC(=O)[C@H](Cc2ccc(O)cc2)NC(=O)[C@@H]2CCCN2C(=O)[C@H](CC(=O)O)NC(=O)[C@H](C)NC(=O)[C@H](Cc2ccccc2)NC(=O)[C@@H]2CSCCC(=O)N3CN(CN(C3)C(=O)CCSCCC(=O)N[C@@H](CC(C)(C)C)C(=O)N3CCC[C@H]3C(=O)N[C@@H](CCC(=O)O)C(=O)N[C@H](CCCCNC(=O)CCc3cn(CCOCCOCCOCCOCCOCCC(=O)N[C@H]4CSCCC(=O)N5CN6CN(C5)C(=O)CCSC[C@H](NC(=O)[C@@H](CC(=O)O)NC(=O)[C@H](Cc5cccc7ccccc57)NC(=O)[C@@H]5CCCN5C4=O)C(=O)N[C@@H](CCSC)C(=O)N[C@@H](CCCCNC(=N)N)C(=O)N[C@@H](CC(=O)O)C(=O)N[C@@H](Cc4c[nH]c5ccccc45)C(=O)N[C@@H](CO)C(=O)N[C@@H]([C@@H](C)O)C(=O)N4CCC[C@H]4C(=O)N4C[C@H](O)C[C@H]4C(=O)N[C@@H](Cc4c[nH]c5ccccc45)C(=O)N[C@H](C(N)=O)CSCCC6=O)nn3)C(=O)N3CCC[C@H]3C(=O)N[C@@H](Cc3ccc(O)cc3)C(=O)N2)C(=O)CCSCCNC1=O
EC50 (Tumor necrosis factor receptor superfamily member 9/Nectin-4; reporter gene, agonist; HT-1376 coculture with reporter cells): 5.55 nM

CCCCCCCCCCCCCCCC(=O)OCC(CSCC(N)C(=O)NC(CO)C(=O)NCCCN(C)C)OC(=O)CCCCCCCCCCCCCCC (stereo not shown)
EC50 (TLR2 (Homo sapiens, UniProt O60603); reporter gene, agonist; HEK-Blue hTLR2 cells): 0.46 ± 0.04 nM

CC[C@H](C)[C@H](NC(=O)[C@H](C)NC(=O)[C@@H](NC(=O)[C@@H](NC(=O)[C@H](C)NC(=O)[C@H](C)NC(=O)[C@H](Cc1c[nH]c2ccccc12)NC(=O)[C@@H](NC(=O)[C@H](CO)NC(=O)[C@@H](N)CO)C(C)C)[C@@H](C)O)[C@@H](C)O)C(=O)O
EC50 (H2-D1 17; H-2D stabilisation, flow cytometry; RMA-S TAP-deficient; overnight): 60000 nM

CCCC[C@@H]1NC(=O)[C@H](Cc2ccc(O)cc2)NC(=O)[C@@H]2CCCN2C(=O)[C@H](CC(=O)O)NC(=O)[C@H](C)NC(=O)[C@H](Cc2ccccc2)NC(=O)[C@@H]2CSCCC(=O)N3CN(CN(C3)C(=O)CCSC[C@@H](C(=O)N[C@@H](C)C(N)=O)NC1=O)C(=O)CCSC[C@H](NC(C)=O)C(=O)N[C@@H](CC(C)(C)C)C(=O)N1CCC[C@H]1C(=O)N[C@@H](CCC(=O)O)C(=O)N[C@H](CCCCNC(=O)CCc1cn(CCOCCOCCOCCOCCOCCC(=O)N[C@H]3CSCCC(=O)N4CN5CN(C4)C(=O)CCSC[C@H](NC(=O)[C@@H](CCC(=O)O)NC(=O)[C@H](Cc4cccc6ccccc46)NC(=O)[C@@H]4CCCN4C3=O)C(=O)N[C@@H](CC(C)C)C(=O)N[C@@H](CCCCNC(=N)N)C(=O)N[C@@H](CC(=O)O)C(=O)N[C@@H](Cc3c[nH]c4ccccc34)C(=O)N[C@@H](CO)C(=O)N[C@@H]([C@@H](C)O)C(=O)N3CCC[C@H]3C(=O)N3C[C@H](O)C[C@H]3C(=O)N[C@@H](Cc3c[nH]c4ccccc34)C(=O)N[C@H](C(N)=O)CSCCC5=O)nn1)C(=O)N1CCC[C@H]1C(=O)N[C@@H](Cc1ccc(O)cc1)C(=O)N2
EC50 (Tumor necrosis factor receptor superfamily member 9/Nectin-4; reporter gene, agonist; HT-1376 coculture with reporter cells): 2.21 nM

CC/C(=C(\c1ccc(O)cc1)c1ccc(OCCN(C)C)cc1)c1ccccc1
EC50 (CNR2 (Homo sapiens, UniProt P34972); cAMP level increase; CHO cells): 5800 ± 300 nM

CC[C@H](C)[C@H](NC(=O)[C@H](C)NC(=O)[C@@H](NC(=O)[C@@H](NC(=O)[C@H](C)NC(=O)[C@H](CC(N)=O)NC(=O)[C@H](Cc1c[nH]c2ccccc12)NC(=O)[C@@H](NC(=O)[C@H](CO)NC(=O)[C@@H](N)CO)C(C)C)[C@@H](C)O)[C@@H](C)O)C(=O)O
EC50 (H2-D1 17; H-2D stabilisation, flow cytometry; RMA-S TAP-deficient; overnight): 2000 nM

CCCC[C@@H]1NC(=O)[C@H](Cc2ccc(O)cc2)NC(=O)[C@@H]2CCCN2C(=O)[C@H](CC(=O)O)NC(=O)[C@H](C)NC(=O)[C@H](Cc2ccccc2)NC(=O)[C@@H]2CSCCC(=O)N3CN(CN(C3)C(=O)CCSC[C@@H](C(=O)N[C@@H](C)C(N)=O)NC1=O)C(=O)CCSC[C@H](NC(C)=O)C(=O)N[C@@H](CC(C)(C)C)C(=O)N1CCC[C@H]1C(=O)N[C@@H](CCC(=O)O)C(=O)N[C@H](CCCCNC(=O)CCc1cn(CCOCCOCCOCCOCCOCCC(=O)NCCCC[C@H]3NC(=O)[C@H](Cc4cccc5ccccc45)NC(=O)[C@@H]4CCCN4C(=O)CCSCCC(=O)N4CN5CN(C4)C(=O)CCSC[C@H](NC3=O)C(=O)N[C@@H](CCSC)C(=O)N[C@@H](CCCCNC(=N)N)C(=O)N[C@@H](CC(=O)O)C(=O)N[C@@H](Cc3c[nH]c4ccccc34)C(=O)N[C@@H](CO)C(=O)N[C@@H]([C@@H](C)O)C(=O)N3CCC[C@H]3C(=O)N3C[C@H](O)C[C@H]3C(=O)N[C@@H](Cc3c[nH]c4ccccc34)C(=O)N[C@H](C(N)=O)CSCCC5=O)nn1)C(=O)N1CCC[C@H]1C(=O)N[C@@H](Cc1ccc(O)cc1)C(=O)N2
EC50 (Tumor necrosis factor receptor superfamily member 9/Nectin-4; reporter gene, agonist; HT-1376 coculture with reporter cells): 2.15 nM

CC[C@H](C)[C@H](NC(=O)CNC(=O)[C@@H](NC(=O)[C@@H](NC(=O)[C@H](C)NC(=O)[C@H](CC(N)=O)NC(=O)[C@H](Cc1c[nH]c2ccccc12)NC(=O)[C@@H](NC(=O)[C@H](CO)NC(=O)[C@@H](N)CO)C(C)C)[C@@H](C)O)[C@@H](C)O)C(=O)O
EC50 (H2-D1 17; H-2D stabilisation, flow cytometry; RMA-S TAP-deficient; overnight): 25000 nM

CCCCCCCCCC(=O)N[C@H]1CCOC1=O
EC50 (sdiA): 16 nM

CCCC[C@@H]1NC(=O)[C@H](Cc2ccc(O)cc2)NC(=O)[C@@H]2CCCN2C(=O)[C@H](CC(=O)O)NC(=O)[C@H](C)NC(=O)[C@H](Cc2ccccc2)NC(=O)[C@@H]2CSCCC(=O)N3CN(CN(C3)C(=O)CCSC[C@@H](C(=O)N[C@@H](C)C(N)=O)NC1=O)C(=O)CCSC[C@H](NC(C)=O)C(=O)N[C@@H](CC(C)(C)C)C(=O)N1CCC[C@H]1C(=O)N[C@@H](CCC(=O)O)C(=O)N[C@H](CCCCNC(=O)CCc1cn(CCOCCOCCOCCOCCOCCC(=O)NCCCC[C@H]3NC(=O)[C@H](Cc4cccc5ccccc45)NC(=O)[C@@H]4CCCN4C(=O)[C@@H](NC(C)=O)CSCCC(=O)N4CN5CN(C4)C(=O)CCSC[C@H](NC3=O)C(=O)N[C@@H](CCSC)C(=O)N[C@@H](CCCCNC(=N)N)C(=O)N[C@@H](CC(=O)O)C(=O)N[C@@H](Cc3c[nH]c4ccccc34)C(=O)N[C@@H](CO)C(=O)N[C@@H]([C@@H](C)O)C(=O)N3CCC[C@H]3C(=O)N3C[C@H](O)C[C@H]3C(=O)N[C@@H](Cc3c[nH]c4ccccc34)C(=O)N[C@H](C(N)=O)CSCCC5=O)nn1)C(=O)N1CCC[C@H]1C(=O)N[C@@H](Cc1ccc(O)cc1)C(=O)N2
EC50 (Tumor necrosis factor receptor superfamily member 9/Nectin-4; reporter gene, agonist; HT-1376 coculture with reporter cells): 1.61 nM

COc1ccc(C[C@@H](C)NC[C@H](O)c2ccc(O)c3[nH]c(=O)ccc23)cc1
EC50 (ADRB1 (Meleagris gallopavo, UniProt P07700, C116L); CRE-SPAP reporter gene, agonist; CHO cells): 0.603 nM

A few entries again:
CCCCCCCCCC(=O)N[C@H]1CCOC1=O
EC50 (sdiA): 16 nM

CCCC[C@@H]1NC(=O)[C@H](Cc2ccc(O)cc2)NC(=O)[C@@H]2CCCN2C(=O)[C@H](CC(=O)O)NC(=O)[C@H](C)NC(=O)[C@H](Cc2ccccc2)NC(=O)[C@@H]2CSCCC(=O)N3CN(CN(C3)C(=O)CCSC[C@@H](C(=O)N[C@@H](C)C(N)=O)NC1=O)C(=O)CCSC[C@H](NC(C)=O)C(=O)N[C@@H](CC(C)(C)C)C(=O)N1CCC[C@H]1C(=O)N[C@@H](CCC(=O)O)C(=O)N[C@H](CCCCNC(=O)CCc1cn(CCOCCOCCOCCOCCOCCC(=O)NCCCC[C@H]3NC(=O)[C@H](Cc4cccc5ccccc45)NC(=O)[C@@H]4CCCN4C(=O)[C@@H](NC(C)=O)CSCCC(=O)N4CN5CN(C4)C(=O)CCSC[C@H](NC3=O)C(=O)N[C@@H](CCSC)C(=O)N[C@@H](CCCCNC(=N)N)C(=O)N[C@@H](CC(=O)O)C(=O)N[C@@H](Cc3c[nH]c4ccccc34)C(=O)N[C@@H](CO)C(=O)N[C@@H]([C@@H](C)O)C(=O)N3CCC[C@H]3C(=O)N3C[C@H](O)C[C@H]3C(=O)N[C@@H](Cc3c[nH]c4ccccc34)C(=O)N[C@H](C(N)=O)CSCCC5=O)nn1)C(=O)N1CCC[C@H]1C(=O)N[C@@H](Cc1ccc(O)cc1)C(=O)N2
EC50 (Tumor necrosis factor receptor superfamily member 9/Nectin-4; reporter gene, agonist; HT-1376 coculture with reporter cells): 1.61 nM
